# Published values collected from several papers.
# Every numbered part comes from another study and shows a few of its results, in no order.
# Sequence of UniProt Q9Y6E0 (whole entry, looked up): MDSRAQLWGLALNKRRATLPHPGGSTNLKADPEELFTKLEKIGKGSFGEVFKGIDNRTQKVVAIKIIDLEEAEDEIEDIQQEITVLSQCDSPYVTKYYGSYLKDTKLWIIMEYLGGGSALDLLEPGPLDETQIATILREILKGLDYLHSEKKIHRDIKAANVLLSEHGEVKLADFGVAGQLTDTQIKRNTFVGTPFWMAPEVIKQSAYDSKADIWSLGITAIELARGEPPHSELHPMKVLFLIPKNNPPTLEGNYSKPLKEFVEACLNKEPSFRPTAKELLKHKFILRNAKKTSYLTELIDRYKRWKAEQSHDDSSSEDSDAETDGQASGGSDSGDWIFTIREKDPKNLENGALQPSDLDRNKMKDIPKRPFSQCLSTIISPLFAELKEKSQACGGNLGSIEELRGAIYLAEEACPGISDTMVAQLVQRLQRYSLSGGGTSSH
# Sequence of UniProt P16591 (whole entry, looked up): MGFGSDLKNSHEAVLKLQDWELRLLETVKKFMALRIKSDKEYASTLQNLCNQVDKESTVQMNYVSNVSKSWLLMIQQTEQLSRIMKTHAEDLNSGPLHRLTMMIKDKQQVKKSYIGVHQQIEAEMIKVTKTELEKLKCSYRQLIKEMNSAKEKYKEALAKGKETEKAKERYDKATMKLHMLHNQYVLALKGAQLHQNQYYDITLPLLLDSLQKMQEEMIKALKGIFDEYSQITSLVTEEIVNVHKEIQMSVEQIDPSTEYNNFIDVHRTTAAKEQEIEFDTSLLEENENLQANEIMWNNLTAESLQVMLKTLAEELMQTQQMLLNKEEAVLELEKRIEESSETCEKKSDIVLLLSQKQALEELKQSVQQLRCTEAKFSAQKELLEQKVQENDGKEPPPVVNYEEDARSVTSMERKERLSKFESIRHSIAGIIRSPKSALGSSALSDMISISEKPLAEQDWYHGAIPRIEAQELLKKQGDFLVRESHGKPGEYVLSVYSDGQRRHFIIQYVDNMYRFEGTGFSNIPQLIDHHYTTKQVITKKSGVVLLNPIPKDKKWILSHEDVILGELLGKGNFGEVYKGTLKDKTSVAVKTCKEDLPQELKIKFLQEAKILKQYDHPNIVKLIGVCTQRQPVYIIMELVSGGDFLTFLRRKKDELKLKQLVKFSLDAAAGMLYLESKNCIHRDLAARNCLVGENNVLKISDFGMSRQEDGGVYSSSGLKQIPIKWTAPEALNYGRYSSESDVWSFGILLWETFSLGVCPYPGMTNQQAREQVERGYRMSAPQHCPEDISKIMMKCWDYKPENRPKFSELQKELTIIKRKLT

# Block 1
# Target: Homeobox protein Hox-B13, full length (HOXB13, Homo sapiens, UniProt Q92826, residues 1-284)
# Sequence of UniProt Q92826 (whole entry, looked up): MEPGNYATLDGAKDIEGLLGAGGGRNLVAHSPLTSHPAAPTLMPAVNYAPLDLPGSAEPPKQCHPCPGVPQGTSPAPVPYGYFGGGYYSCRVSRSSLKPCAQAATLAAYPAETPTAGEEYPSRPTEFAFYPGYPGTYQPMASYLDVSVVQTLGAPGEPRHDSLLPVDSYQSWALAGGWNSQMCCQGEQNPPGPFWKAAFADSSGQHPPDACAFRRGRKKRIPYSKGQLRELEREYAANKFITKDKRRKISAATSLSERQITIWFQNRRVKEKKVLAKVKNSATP
# Technique: protein-binding microarray
# Molecule type: hairpin DNA
# Matrix: in vitro
# Concentration: not given
# Notes: whole hairpin DNA, median over replicate spots
# Relative to: not given
# Direction: higher = stronger binding
# All sequences stand within: GAGGCCG … CGGCCTCACACTC
Oligonucleotide,median fluorescence
TTTTATTCGGGCCTCCTGGCCCGAATAAAA,4180 a.u.
TCGTATTGGGGCCTCCTGGCCCCAATACGA (5mC at 35),4040 a.u.
TTTTCGGAGGGCCTCCTGGCCCTCCGAAAA (5mC at 12 32),3780 a.u.
GTTTATTGGGGCCTCCTGGCCCCAATAAAC,4930 a.u.
TTCGATTGGGGCCTCCTGGCCCCAATCGAA (5mC at 10 34),3950 a.u.
CGTTATTGGGGCCTCCTGGCCCCAATAACG (5mC at 8),4210 a.u.
TTTTATCGGGGCCTCCTGGCCCCGATAAAA (5mC at 14 30),4220 a.u.
TTTTATTCGGGCCTCCTGGCCCGAATAAAA (5mC at 15 29),3880 a.u.

# Block 2
# SMILES: CCCOc1ccc([C@H]2[C@H](C(=O)O)[C@@H](c3ccc4c(c3)OCO4)CN2CC(=O)Nc2c(CC)cccc2CC)cc1
# Read-out: cell-free assay
# Technique: competition with immobilised ligand
# Concentration: 1 µM
target,remaining binding [%]
"Tyrosine-protein kinase Fer (FER, Homo sapiens, UniProt P16591)",100
"Serine/threonine-protein kinase 24 (STK24, Homo sapiens, UniProt Q9Y6E0)",84
"Receptor-type tyrosine-protein kinase FLT3 (FLT3, Homo sapiens, UniProt P36888, D835H)",92

# Block 3
# Target: PABPC1L2, full length, GST fusion (mouse, UniProt A0ABA7IW68)
# Technique: RNAcompete
# Molecule type: RNA
# Matrix: in vitro
# Concentration: 20 nM
# Notes: 7-mer, probes averaged, single round
# Relative to: mean of 7-mers
# Direction: higher = stronger binding
# Construct (chain): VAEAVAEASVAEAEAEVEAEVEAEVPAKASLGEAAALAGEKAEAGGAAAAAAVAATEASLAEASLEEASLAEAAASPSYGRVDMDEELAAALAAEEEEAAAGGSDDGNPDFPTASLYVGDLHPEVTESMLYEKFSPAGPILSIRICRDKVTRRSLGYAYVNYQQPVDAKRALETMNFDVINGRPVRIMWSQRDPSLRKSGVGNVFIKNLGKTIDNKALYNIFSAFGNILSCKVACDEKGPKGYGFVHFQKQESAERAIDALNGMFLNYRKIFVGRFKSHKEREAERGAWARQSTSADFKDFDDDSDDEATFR
Oligonucleotide,7-mer Z-score
UAUCUUG,-0.309
GCGGUGA,0.00254
GUAAACC,-0.15
CAUCUCU,-0.287
GCUGAAG,0.115
AGCUUAA,-0.0881
CACCUCG,-0.228
UGCUCGU,-0.423

# Further values, each from its own experiment
SMILES,matrix,endpoint,value
CCOC(=O)[C@@H]1CSCC(=O)N[C@@H](CC)C(=O)N(C)[C@@H](C)C(=O)N[C@@H](CC(C)C)C(=O)N2CCC[C@H]2C(=O)N(CC)CC(=O)N[C@H](CC(C)C)C(=O)N(C)[C@@H](C)C(=O)N[C@@H](CC(C)C)C(=O)N1C,hydrocarbon/water,logD,0.0163
